{"data": "Results gathered from unrelated publications", "note": "Each numbered part is a random draw from the data of one study; scales do not carry over between parts. Changes are numbered by the printed parent chain."}
{"data": "Study 1", "target": "PABPC1L2, full length, GST fusion (mouse, UniProt A0ABA7IW68)", "method": "RNAcompete", "molecule type": "RNA", "medium": "in vitro", "concentration": "20 nM", "notes": "7-mer, probes averaged, single round", "relative to": "mean of 7-mers", "reading": "higher = stronger binding", "Construct (chain)": "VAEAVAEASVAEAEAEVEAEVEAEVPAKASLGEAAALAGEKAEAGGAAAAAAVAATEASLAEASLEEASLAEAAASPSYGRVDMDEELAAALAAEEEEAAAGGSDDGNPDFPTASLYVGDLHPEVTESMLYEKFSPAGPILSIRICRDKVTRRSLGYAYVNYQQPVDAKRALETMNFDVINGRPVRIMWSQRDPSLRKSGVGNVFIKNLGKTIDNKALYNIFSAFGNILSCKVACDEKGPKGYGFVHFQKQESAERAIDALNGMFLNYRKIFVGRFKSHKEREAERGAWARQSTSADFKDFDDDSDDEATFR"}
{"Sequence": "CGACUCU", "7-mer Z-score": -0.364}
{"Sequence": "CUACGCG", "7-mer Z-score": -0.345}
{"Sequence": "UUUUGUU", "7-mer Z-score": -0.407}
{"Sequence": "GUGGUGU", "7-mer Z-score": -0.0826}
{"Sequence": "AAAUCAG", "7-mer Z-score": 1.45}
{"Sequence": "UGCAUGG", "7-mer Z-score": 0.0189}
{"Sequence": "CAGAUCA", "7-mer Z-score": 0.186}
{"Sequence": "AAUACGG", "7-mer Z-score": 0.423}
{"data": "Study 2", "target": "CCNB1, cyclin fold, Cln2 fusion (human)", "method": "yeast growth competition, sequencing", "medium": "yeast", "notes": "strong parent motif", "relative to": "not given", "reading": "higher = stronger binding", "starting sequence": "viral docking peptide; YKVKRRLVFGADD; partner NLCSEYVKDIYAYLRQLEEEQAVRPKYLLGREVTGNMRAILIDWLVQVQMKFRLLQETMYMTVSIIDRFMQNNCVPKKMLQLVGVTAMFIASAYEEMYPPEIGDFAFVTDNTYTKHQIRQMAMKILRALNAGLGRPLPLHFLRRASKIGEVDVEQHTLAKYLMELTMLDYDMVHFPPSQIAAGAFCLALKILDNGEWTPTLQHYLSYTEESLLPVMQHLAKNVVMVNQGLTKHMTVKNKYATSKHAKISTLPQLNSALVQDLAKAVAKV"}
{"Change": "YKVKRRLVKGADD [F9K]", "normalised enrichment score": 0.126}
{"Change": "YKVGRRLVFGADD [K4G]", "normalised enrichment score": 1.63}
{"Change": "YKVKRRLVFGPDD [A11P]", "normalised enrichment score": 4.6}
{"Change": "YKVKRRLVFGYDD [A11Y]", "normalised enrichment score": 3.56}
{"Change": "YKVKRRLAFGADD [V8A]", "normalised enrichment score": 1.78}
{"Change": "YKVKRRQVFGADD [L7Q]", "normalised enrichment score": -0.0627}
{"Change": "YKVKRRLVYGADD [F9Y]", "normalised enrichment score": 2.14}
{"Change": "YKAKRRLVFGADD [V3A]", "normalised enrichment score": 0.852}
{"Change": "YSVKRRLVFGADD [K2S]", "normalised enrichment score": 4.47}
{"Change": "YKVKRVLVFGADD [R6V]", "normalised enrichment score": 1.46}
{"Change": "YKVKMRLVFGADD [R5M]", "normalised enrichment score": 1.78}
{"Change": "YKWKRRLVFGADD [V3W]", "normalised enrichment score": 0.545}
{"Change": "YKCKRRLVFGADD [V3C]", "normalised enrichment score": 2.1}
{"Change": "YKVDRRLVFGADD [K4D]", "normalised enrichment score": 2.23}
{"Change": "YKVKRKLVFGADD [R6K]", "normalised enrichment score": 4.14}
{"Change": "YKMKRRLVFGADD [V3M]", "normalised enrichment score": 0.534}
{"Change": "YKFKRRLVFGADD [V3F]", "normalised enrichment score": 1.05}
{"Change": "YKVRRRLVFGADD [K4R]", "normalised enrichment score": 4.71}
{"Change": "YLVKRRLVFGADD [K2L]", "normalised enrichment score": 3.78}
{"data": "Study 3", "target": "inorganic phosphate, free oxyanion", "method": "microfluidic competitive inhibition", "medium": "in vitro, cell-free expressed", "concentration": "not given", "notes": "derived from inhibition constants, unchanged parent 615000 nM", "reading": "lower = stronger binding", "starting sequence": "PafA, mature enzyme, eGFP fusion (Elizabethkingia meningoseptica, UniProt Q9KJX5); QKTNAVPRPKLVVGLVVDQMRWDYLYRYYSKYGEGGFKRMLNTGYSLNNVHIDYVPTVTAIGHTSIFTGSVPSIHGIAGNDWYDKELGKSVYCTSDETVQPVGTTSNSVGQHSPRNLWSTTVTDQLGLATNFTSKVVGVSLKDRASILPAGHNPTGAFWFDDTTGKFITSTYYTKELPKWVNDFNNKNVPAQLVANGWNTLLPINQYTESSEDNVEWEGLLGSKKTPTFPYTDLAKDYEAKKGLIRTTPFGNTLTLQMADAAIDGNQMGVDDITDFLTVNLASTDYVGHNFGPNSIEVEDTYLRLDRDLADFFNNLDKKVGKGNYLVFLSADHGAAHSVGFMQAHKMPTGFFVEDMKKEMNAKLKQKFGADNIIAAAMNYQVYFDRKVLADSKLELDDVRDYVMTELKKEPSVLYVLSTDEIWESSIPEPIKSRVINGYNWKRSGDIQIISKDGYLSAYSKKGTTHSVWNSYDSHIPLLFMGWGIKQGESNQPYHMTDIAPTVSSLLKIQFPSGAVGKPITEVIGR"}
{"Change": "N42V", "phosphate dissociation constant": "659 µM"}
{"Change": "P230G", "phosphate dissociation constant": "514 µM"}
{"Change": "W441G", "phosphate dissociation constant": "419 µM"}
{"data": "Study 4", "target": "Centromere-binding protein 1, full length, N-terminal tag (CBF1, Saccharomyces cerevisiae, UniProt P17106, residues 1-351)", "method": "protein-binding microarray", "molecule type": "double-stranded DNA, one strand shown", "medium": "in vitro", "concentration": "0.8 µM", "notes": "whole 60-bp probe, no competitor", "reading": "higher = stronger binding", "shared flanks, not repeated": "… GTCTTGATTCGCTTGACGCTGCTG", "UniProt P17106, sequence (whole entry, looked up)": "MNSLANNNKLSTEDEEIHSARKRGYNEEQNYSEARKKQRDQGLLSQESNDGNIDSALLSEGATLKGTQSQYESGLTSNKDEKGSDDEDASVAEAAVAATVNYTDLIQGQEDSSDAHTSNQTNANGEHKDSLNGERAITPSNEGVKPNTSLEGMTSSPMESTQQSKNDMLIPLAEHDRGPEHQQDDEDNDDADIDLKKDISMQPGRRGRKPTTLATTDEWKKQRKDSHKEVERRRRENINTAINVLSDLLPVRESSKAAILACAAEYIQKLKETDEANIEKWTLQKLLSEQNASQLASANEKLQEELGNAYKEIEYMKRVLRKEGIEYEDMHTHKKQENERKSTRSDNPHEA"}
{"Sequence": "GAATTTATTCCTTATCAGTTGATTTGGATGATATAG", "fluorescence intensity [a.u.]": 562}
{"Sequence": "CTAGCGGCTGGTTGACTAGTCACAAGAAACAGATTC", "fluorescence intensity [a.u.]": 543}
{"Sequence": "CTAGTACGTAGTGATTGCGTGGATTAGTTTATCTTC", "fluorescence intensity [a.u.]": 502}
{"Sequence": "GAAACTTAAATAACACACACGTTATCTCTAGCGTAG", "fluorescence intensity [a.u.]": 625}
{"Sequence": "CCTAACTACTATACTGATGTCACATAGCTTCGTACA", "fluorescence intensity [a.u.]": 549}
{"Sequence": "GAACCTACAGACCACAACGTGTCACTGCTAAGCTAG", "fluorescence intensity [a.u.]": 586}
{"Sequence": "GAAGATATTACTTATCTCAGCTGAGGTCTCTGGTAG", "fluorescence intensity [a.u.]": 482}
{"Sequence": "TGTACGAAGCTATCGTGCGTTTTTATAGTAGTTAGG", "fluorescence intensity [a.u.]": 516}
{"data": "Single results of other studies", "method": "cross-linking MS"}
{"Molecule": "FASTKD3 (Homo sapiens, UniProt Q14CZ7)", "partner": "FASTKD1 (Homo sapiens, UniProt Q53R41)", "medium": "cell fractions", "added": "DSSO", "measurement": "cross-linked residues", "value": "K481 to K482"}
{"Molecule": "BYSL (Homo sapiens, UniProt Q13895)", "partner": "RRP12 (Homo sapiens, UniProt Q5JTH9)", "medium": "cell fractions", "added": "DSSO", "measurement": "cross-linked residues", "value": "K139 to K185"}
{"Molecule": "EXOC4 (Homo sapiens, UniProt Q96A65)", "partner": "EXOC2 (Homo sapiens, UniProt Q96KP1)", "medium": "cell fractions", "added": "DMTMM", "measurement": "cross-linked residues", "value": "K18 to E214"}
{"Molecule": "HNRNPA2B1 (Homo sapiens, UniProt P22626)", "partner": "HNRNPAB (Homo sapiens, UniProt Q99729)", "notes": "hits only", "measurement": "interaction screen", "value": "cross-linked"}
{"note": "Repeated from above (study 1):"}
{"Sequence": "UUUUGUU", "7-mer Z-score": -0.407}
{"Sequence": "GUGGUGU", "7-mer Z-score": -0.0826}
{"Sequence": "AAAUCAG", "7-mer Z-score": 1.45}
{"Sequence": "UGCAUGG", "7-mer Z-score": 0.0189}
{"Sequence": "CAGAUCA", "7-mer Z-score": 0.186}
